Measurements pooled from the literature.
Each numbered part is a random draw from the data of one study; scales do not carry over between parts.

Set 1 — target: Sox, HMG box (Pigoraptor chileana); method: Spec-seq; molecule type: double-stranded DNA, one strand shown; matrix: in vitro; concentration: not given; notes: whole probe, mean of replicates; baseline: not given; reading: lower = stronger binding; constant ends, left off below: GAGTCGTCTCGTCAGCAC … CCGTAGAGCACTCAGGTC
Residues (chain): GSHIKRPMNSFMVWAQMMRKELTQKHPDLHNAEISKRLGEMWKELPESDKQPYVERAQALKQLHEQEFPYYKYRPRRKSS
`CCGAGTT`: “relative binding energy” 0.83 ln ratio.
Under “relative binding energy”, `TAATGTT` is recorded as -0.299 ln ratio.
For `CATTGGA`, “relative binding energy” read 0.11 ln ratio.
`CCAAGTT` — result for “relative binding energy”: 0.368 ln ratio.
`CATTTCG` — result for “relative binding energy”: 0.748 ln ratio.

Set 2 — method: protein-binding microarray; molecule type: double-stranded DNA, one strand shown; matrix: in vitro; concentration: 940 nM top; notes: 60-bp whole probe; added: salmon DNA 0.4 mg/ml; baseline: random background probes; reading: higher = stronger binding; constant ends, left off below: GCCTAGCAC … GTCTTGATTCGCTTGACGCTGCTG
Target: Interferon regulatory factor 5, full length, phosphomimetic (IRF5, Homo sapiens, UniProt Q13568-2, residues 1-514, S451D/S453D/S456D/S462D)
`GACGATTTCGGGCATCGAGACGTGCTA` — result for “fitted relative affinity”: 0.147 z-score.
For `GACGATTTCCGGTTTCGAGACGTGCTA`, “fitted relative affinity” read 3.32 z-score.
For `GACGGTATCCTCATCCTGACGTGCTAG`, “fitted relative affinity” read 0.236 z-score.
`GACGGTCTCCTTATCGTGACGTGCTAG`: “fitted relative affinity” 0.282 z-score.
Under “fitted relative affinity”, `GACGATATCAATATCGAGACGTGCTAG` is recorded as 0.0822 z-score.
Under “fitted relative affinity”, `TCATCTTTCTGTTTTCTACTGTGCTAG` is recorded as 2.95 z-score.
`TCAGTGGTCTGTTTCTGACTGTGCTAG` — result for “fitted relative affinity”: 0.293 z-score.

Mixed results
Fmr1 C-terminal low-complexity region: Fragile X messenger ribonucleoprotein 1, C-terminal low-complexity region (Fmr1, Mus musculus, UniProt P35922)
G3BP1 full length: Ras GTPase-activating protein-binding protein 1, full length (G3BP1, Homo sapiens, UniProt Q13283)
UniProt Q13283, sequence (whole entry, looked up): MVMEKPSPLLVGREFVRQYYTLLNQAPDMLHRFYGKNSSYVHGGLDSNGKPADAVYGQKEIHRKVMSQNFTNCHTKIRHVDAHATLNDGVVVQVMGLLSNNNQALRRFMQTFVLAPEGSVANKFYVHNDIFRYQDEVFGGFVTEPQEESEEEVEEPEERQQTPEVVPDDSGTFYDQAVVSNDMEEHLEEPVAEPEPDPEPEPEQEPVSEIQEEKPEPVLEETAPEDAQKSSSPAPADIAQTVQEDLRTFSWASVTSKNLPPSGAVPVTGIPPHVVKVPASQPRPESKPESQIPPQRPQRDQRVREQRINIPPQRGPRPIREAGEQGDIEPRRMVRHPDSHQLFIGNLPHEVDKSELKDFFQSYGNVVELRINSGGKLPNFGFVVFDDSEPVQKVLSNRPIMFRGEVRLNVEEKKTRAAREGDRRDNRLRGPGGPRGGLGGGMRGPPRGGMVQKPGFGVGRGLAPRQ
The log2 enrichment of `GGGAGUUCUACAGUCCGACGAUCUGUGGAGGAGACGGCCGACUCGACGCUGUGCCACAUCCUGAACCUGUACCGGCGGGCCACCUGGCUGCACCAGGCGCUGCGGGAGGGCACUGGAAUUCUCGGGUGUCAAGG (7-deaza-guanosine replaces G)` is reported as -0.213 (Fmr1 C-terminal low-complexity region; RNA Bind-n-Seq; RNA, in vitro; 200 nM, whole 134-nt RNA, ends assumed, added: 150 mM LiCl; baseline: input library, higher = stronger binding).
The fold induction of `PhoQ, residues 284 288 289 292 302 303 QWQEDG` is reported as 1.58 (PhoP, residues 12 14 15 18 19 AGCRL (Escherichia coli, UniProt P23836); Sort-seq, measured: YFP reporter; E. coli; PhoQ-PhoP variant library, added: 10 µM Mg2+; baseline: high Mg2+ state, higher = stronger signaling).
For `GGGAGUUCUACAGUCCGACGAUCAAGUCCUGUGCUACACAUCGUAUGUACCGAAUCGGGGCCCCGGCCCCGGCCCCGGGGAAAGUAUUAUGUUACGCCGUUCGGAUCUGCACUUGGAAUUCUCGGGUGUCAAGG (7-deaza-guanosine replaces G)`, the log2 enrichment was -2.17 (Fmr1 C-terminal low-complexity region; RNA Bind-n-Seq; RNA, in vitro; 200 nM, whole 134-nt RNA, ends assumed, added: 150 mM LiCl; baseline: input library, higher = stronger binding).
For `GGGAGUUCUACAGUCCGACGAUCUGGGAGGUGGAUUUUGUUUAUUUUUUUAGCUCAUUUCCAGGGGUGGGAAUUUUAUUUUAAUAUGUGUCAUGAAUAAAGUUGUUUUUGAAAUGGAAUUCUCGGGUGUCAAGG (7-deaza-guanosine replaces G)`, the log2 enrichment was -0.12 (G3BP1 full length; RNA Bind-n-Seq; RNA, in vitro; 200 nM, whole 134-nt RNA, ends assumed, added: 150 mM LiCl; baseline: input library, higher = stronger binding).
For `GGGAGUUCUACAGUCCGACGAUCACCAUGCAGGUGGGCAUCUUUGGGAAGUGGGGCAAGGGGGGGAUACGGAGGGGGGUAACACUUUGGGAACAGGUGGUCCCAGGUCGUUUCUGGAAUUCUCGGGUGUCAAGG (7-deaza-guanosine replaces G)`, the log2 enrichment was 0.0286 (G3BP1 full length; RNA Bind-n-Seq; RNA, in vitro; 200 nM, whole 134-nt RNA, ends assumed, added: 150 mM LiCl; baseline: input library, higher = stronger binding).

Excerpt of the above (set 1):
Under “relative binding energy”, `TAATGTT` is recorded as -0.299 ln ratio.
